Published values from different studies.
Protocols differ between the studies behind these lines.
Sigmar1: Sigma non-opioid intracellular receptor 1 (Sigmar1, Rattus norvegicus, UniProt Q9R0C9)
Oprk1: Kappa-type opioid receptor (Oprk1, Rattus norvegicus, UniProt P34975)
Phospholipase D2: Phospholipase D2 (Homo sapiens, UniProt O14939)

| SMILES | target | assay | system | conditions | how to read | selectivity ratio |
| --- | --- | --- | --- | --- | --- | --- |
| N[C@@H](CCC(=O)N[C@@H](CS[Se]Cc1ccc(C(=O)Nc2cc(C(F)(F)F)c(Br)c(C(F)(F)F)c2)cc1)C(=O)NCC(=O)O)C(=O)O | Cathepsin B (CTSB, Homo sapiens, UniProt P07858) | enzyme activity, inhibitor | – | added: glutathione 1 mM | reference: IC50 cathepsin B over mPTPA (M. tuberculosis) | > 100 |
| O=c1sc2ccccc2n1CCCCCCN1CCCCCC1 | Sigmar1 | – | – | – | reference: Ki sigma-2 over Ki sigma-1 | 0.3 |
| CN[C@@H](C)C(=O)N[C@H]1CN(C(=O)Cc2ccccc2)CC[C@H]2CC[C@@H](C(=O)NCc3ccc(C(F)(F)F)cc3)N2C1=O | Baculoviral IAP repeat-containing protein 2, BIR3 domain (BIRC2, Homo sapiens, UniProt Q13490) | fluorescence polarization | – | BIR3 domain | reference: cIAP1 over XIAP | > 900 |
| COC(=O)C=CCCC(NC(=O)c1ccncc1C(=O)O)C(=O)NC(C(=O)N1CC(=O)CC1C(=O)NC(C(=O)NC(C(N)=O)C1CCCCC1)C1CCCCC1)C(C)(C)C (centres unmarked) | Protein-glutamine gamma-glutamyltransferase K (Homo sapiens, UniProt P22735) | transamidation activity, inhibitor | – | – | reference: TG1 IC50 over FXIII-A2 IC50 | 463 |
| O=c1sc2ccccc2n1CCN1CCCC1 | Sigmar1 | – | – | – | reference: Ki sigma-2 over Ki sigma-1 | 14 |
| CC(=O)NCC(=O)N(C)[C@@H](Cc1ccccc1)C(=O)N[C@@H](Cc1ccccc1)C(=O)N[C@@H](Cc1c[nH]c2ccccc12)C(=O)N[C@@H](CCCNC(=N)N)C(=O)N[C@@H](CC(C)C)C(=O)N[C@@H](CCCNC(=N)N)C(=O)N[C@@H](CCCNC(=N)N)C(=O)N[C@H](C)C(=O)N[C@@H](CCCNC(=N)N)C(=O)N1CCC[C@H]1C(=O)N[C@@H](CCCCN)C(N)=O | Oprk1 | binding, [3H]diprenorphine competition | CHO cells | – | reference: Ki mu over Ki kappa, higher = more kappa-selective | 172 |
| C[C@H](NC(=O)CNC(=O)CNC(=O)[C@H](Cc1ccc(O)cc1)NCc1ccccc1)C(=O)N[C@@H]1CC(=O)NC[C@@H](C(=O)N[C@@H](CCCNC(=N)N)C(=O)N2CCC[C@H]2C(=O)N[C@@H](CCCCN)C(N)=O)NC(=O)[C@H](CCCNC(=N)N)NC(=O)[C@H](CCCNC(=N)N)NC1=O | Oprk1 | binding | – | – | reference: Ki(MOR) over Ki(KOR) | > 2.5 |
| COC(=O)N(C)[C@@H](Cc1ccccc1)C(=O)N[C@@H](Cc1ccccc1)C(=O)N[C@@H](Cc1ccc(O)cc1)C(=O)N[C@@H](CCCNC(=N)N)C(=O)N[C@@H](CC(C)C)C(=O)N[C@@H](CCCNC(=N)N)C(=O)N[C@@H](CCCNC(=N)N)C(=O)N[C@H](C)C(=O)N[C@@H](CCCNC(=N)N)C(=O)N1CCC[C@H]1C(=O)N[C@@H](CCCCN)C(N)=O | Oprk1 | binding, [3H]diprenorphine competition | CHO cells | – | reference: Ki mu over Ki kappa, higher = more kappa-selective | 224 |
| NC[C@@H]1[C@@H](O)[C@@H](O)[C@H]2[C@H](O)CCCN21 | Alpha-mannosidase 2 (Homo sapiens, UniProt Q16706) | inhibitor | – | added: fluorogenic mannoside substrate | reference: lysosomal over Golgi mannosidase Ki | 3.7 |
| CCC(=O)c1ccc2c(c1)sc(=O)n2CCCCCCN1CCCCCC1 | Sigmar1 | – | – | – | reference: Ki sigma-2 over Ki sigma-1 | 0.1 |
| C[C@]12COc3ccc(OCc4ccccc4)cc3[C@H]1CCN2 | Sigma non-opioid intracellular receptor 1 (SIGMAR1, Homo sapiens, UniProt Q99720) | binding, radioligand binding | – | – | reference: sigma-1 over TMEM97 (sigma-2) | 36 fold |
| CC(=O)N(C)[C@@H](Cc1ccccc1)C(=O)N[C@@H](Cc1ccccc1)C(=O)N[C@@H](Cc1ccc2ccccc2c1)C(=O)N[C@@H](CCCNC(=N)N)C(=O)N[C@@H](CC(C)C)C(=O)N[C@@H](CCCNC(=N)N)C(=O)N[C@@H](CCCNC(=N)N)C(=O)N[C@H](C)C(=O)N[C@@H](CCCNC(=N)N)C(=O)N1CCC[C@H]1C(=O)N[C@@H](CCCCN)C(N)=O | Oprk1 | binding, [3H]diprenorphine competition | CHO cells | – | reference: Ki mu over Ki kappa, higher = more kappa-selective | 4.5 |
| Cc1ccc(CNC(=O)C(CCc2ccccc2)NC(=O)C(NC(=O)c2ccc(OCc3ccc(C(C)(C)C)cc3)cc2)C(C)O)cc1 (centres unmarked) | Proteasome component C5/PSMB5 (Homo sapiens, UniProt P20618+P28074) | Proteasome-Glo β5 | B-cell lymphoma lines | 1 h | reference: IC50 differences among OCI-Ly10, WSUDLCL2 and Karpas-1106P | ≤ 4 fold |
| CCCc1ccc2c(c1)sc(=O)n2CCCCCN1CCCCCC1 | Sigmar1 | – | – | – | reference: Ki sigma-2 over Ki sigma-1 | 0.3 |
| O=C(NCCN1CCC2(CC1)C(=O)NCN2Cc1ccccn1)c1ccc2ccccc2c1 | Phospholipase D2 | – | – | – | reference: PLD1 IC50 over Phospholipase D2 IC50 | 30 fold |
| CC(=O)C1=C(C)NC(SCCCSc2nnc(Cc3ccccc3Nc3c(Cl)cccc3Cl)n2-c2ccc(Cl)c(Cl)c2)=NC1c1ccc([N+](=O)[O-])cc1 (centres unmarked) | Amine oxidase [flavin-containing] B (MAOB, Homo sapiens, UniProt P27338) | fluorometric | – | – | reference: IC50 hMAO-A over IC50 hMAO-B | 0.1 |
| CCCC(=O)c1ccc2c(c1)sc(=O)n2CCCCCN1CCCCCC1 | Sigmar1 | – | – | – | reference: Ki sigma-2 over Ki sigma-1 | 0.4 |
| O=C(NCCN1CCC2(CC1)C(=O)NCN2Cc1ccncc1)c1ccc2ccccc2c1 | Phospholipase D2 | – | – | – | reference: PLD1 IC50 over Phospholipase D2 IC50 | 28 fold |
| CC(=O)N(C)[C@@H](Cc1ccccc1)C(=O)N[C@@H](Cc1ccccc1)C(=O)N[C@@H](Cc1ccc(O)cc1)C(=O)N[C@@H](CCCNC(=N)N)C(=O)N[C@@H](CC(C)C)C(=O)N[C@@H](CCCNC(=N)N)C(=O)N[C@@H](CCCNC(=N)N)C(=O)N[C@H](C)C(=O)N[C@@H](CCCNC(=N)N)C(=O)N1CCC[C@H]1C(=O)N[C@@H](CCCCN)C(N)=O | Oprk1 | binding, [3H]diprenorphine competition | CHO cells | – | reference: Ki mu over Ki kappa, higher = more kappa-selective | 90 |
| CCCC(=O)c1ccc2c(c1)sc(=O)n2CCCN1CCCCCC1 | Sigmar1 | – | – | – | reference: Ki sigma-2 over Ki sigma-1 | 39 |

Some of these lines once more:
| SMILES | target | assay | system | conditions | how to read | selectivity ratio |
| --- | --- | --- | --- | --- | --- | --- |
| N[C@@H](CCC(=O)N[C@@H](CS[Se]Cc1ccc(C(=O)Nc2cc(C(F)(F)F)c(Br)c(C(F)(F)F)c2)cc1)C(=O)NCC(=O)O)C(=O)O | Cathepsin B (CTSB, Homo sapiens, UniProt P07858) | enzyme activity, inhibitor | – | added: glutathione 1 mM | reference: IC50 cathepsin B over mPTPA (M. tuberculosis) | > 100 |
